Measured values collected from several papers.
“And” joins repeats or separate records; there may be more than shown. ± marks the error that the study gave.

Compound | assay | system | conditions | scale | endpoint | value
COc1cc(N(C)CCN(C)C)c(NC(=O)CCSCC(N)C(=O)O)cc1Nc1nccc(-c2cn(C3CC3)c3ccccc23)n1 (stereo not drawn) | radio-HPLC, co-eluting peaks pooled | human, feces | 0 to 240 h, sample holds 81.99% dose | baseline: dose | excreted amount | 1.89%
O=C([O-])CN1CCN(CC(=O)[O-])CCN(CC(=O)c2ccc(-c3ccc(OCC(=O)O)cc3)cc2)CCN(CC(=O)[O-])CC1.[Gd+3] | – | – | concentration not given, SAP isomer | – | activation enthalpy of water exchange | 13.1 kcal/mol
CC[C@H](C)[C@H](NC(=O)[C@H](N)Cc1ccc(O)cc1)C(=O)N[C@H]1CSSC[C@@H](C(=O)N(C)[C@H](C(N)=O)[C@@H](C)CC)NC(=O)[C@H](CCCNC(=N)N)NC(=O)[C@H](Cc2c[nH]cn2)NC(=O)[C@H](C)NC(=O)CN(C)C(=O)[C@H](Cc2c[nH]c3ccccc23)NC(=O)[C@H](CC(=O)O)NC(=O)[C@H](CCC(N)=O)NC(=O)[C@H](Cc2cn(C)c3ccccc23)NC(=O)[C@H](C(C)C)NC1=O | UPLC-ESI-MS | cynomolgus monkey plasma | 0.36 µg/mL, 48 h, 25 °C, bench-top after SPE | – | recovery | 99.5 ± 0.3%
CC(C)C[C@@H](NC(=O)[C@H](NC(=O)[C@H]1CCCN1)[C@H](C)O)C(=O)N[C@H](Cc1c[nH]cn1)C(=O)N[C@@H](C(=O)N[C@H](Cc1c[nH]cn1)C(=O)N[C@H](CC(N)=O)C(=O)N[C@H](CCCNC(=N)N)C(=O)N[C@H](CCCNC(=N)N)C(=O)N[C@H](CCCNC(=N)N)C(=O)N[C@H](CCCNC(=N)N)C(=O)N[C@H](CCCNC(=N)N)C(N)=O)[C@H](C)O | – | Beagle dog, plasma | intravenous, 3 mg/kg, single dose | – | AUC fraction of alpha phase | 3.6%
COc1cccc([O-])c1C=NCCCN(C)CCN(C)CCCN=Cc1c([O-])cccc1OC.[67Ga+3] | – | rat | intravenous, 2 h | baseline: heart over liver | tissue uptake ratio | 7.2 ± 1.9
O=[N][Fe]1([N]=O)[S](CCO)[Fe]([N]=O)([N]=O)[S]1CCO | nitrate/nitrite colorimetric | simulated gastric fluid | 37 °C | – | NO released | ~2 equivalents
Cc1ccc2oc(-c3c4c(N)n[nH]c(=O)c4nn3-c3ccc(NC(=O)/C=C/CN(C)C)cc3)c(C)c2c1 | – | mouse, plasma | intravenous, 1 mg/kg | – | AUC(0-inf) | 321 ng·h/mL
O=C(O)/C=C/c1cccc(S(=O)(=O)Nc2ccccc2)c1 | – | human, moderate liver dysfunction, plasma | intravenous, 400 mg/m^2 belinostat, cycle 1 day -7, geometric mean | baseline: metabolite over belinostat | AUC(0-inf) metabolic ratio | 0.666
COC(=O)C(c1ccccc1Cl)N1CCC(SCC(=O)c2cccc(OC)c2)C(=CC(=O)O)C1 (mixture of isomers) | HPLC-MS/MS | feline EDTA plasma | 100 ng/mL, 48 h, -80 °C, storage stability | – | deviation from nominal | 5%
CC(C)(O)c1ncc([S@](N)(=O)=NC(=O)Nc2c3c(cc4c2CCC4)CCC3)s1 | – | healthy human volunteers, plasma | oral, 200 mg once daily, day 14, spray-dried dispersion | – | half-life | 12.5 h
CC(C)[C@H](NC(=O)[C@@H]1CCCN1C(=O)[C@H](CCCNC(=N)N)NC(=O)[C@H](CS)NC(=O)[C@H](Cc1c[nH]c2ccccc12)NC(=O)[C@H](CCCNC(=N)N)NC(=O)[C@@H](Cc1ccccc1)NC(=O)[C@H](Cc1c[nH]cn1)NC(=O)[C@H](CCC(=O)O)NC(=O)[C@H](CS)NC(=O)[C@H](CS)NC(=O)CNC(=O)[C@@H]1CC(=O)N[C@@H](CCCNC(=N)N)C(=O)NCC(=O)N[C@@H](CC(=O)O)C(=O)N[C@H](Cc2ccc(O)cc2)C(=O)N1)C(N)=O [technetium-99m labelled] | – | C57 mouse, female, B16/F1 melanoma | intravenous, 0.037 MBq, 0.5 h | baseline: tumour over blood | tumour to tissue ratio | 1.86
COc1ccc(-c2csc(N/N=C(\C)c3ccc(O)cc3)n2)cc1 | – | stock and working solutions | concentration not given, 3 months, refrigerated, long-term storage | – | deviation from initial concentration | < 10%
Nc1ncnc2c1nc(-n1nnc3c1CCC1C(CO)C1CC3)n2C1CC(O)C(CO)O1 (mixture of isomers) | frequency-domain fluorometry | methanol | – | – | fluorescence lifetime τ1 | 0.1 ns
C[Si]1(C)CNC(=O)c2ccccc21 | – | Sprague-Dawley rat, male, plasma | intravenous, 1 mg/kg | – | AUC(0-t) | 556 ± 97 ng·h/mL
O=C(O)[C@@H]1C[C@@H](O)CN1C(=O)[C@@H]1CCCN1 | potentiometric titration | – | 25 °C, MAH-3 complex, with: Fe(III) | – | log beta | -10.9
COCCOCCOCCOCCOCCOCCOCCOCCC(=O)NCCCc1cc2cc3nc(cc4[nH]c(cc5nc(c(OC)c1[nH]2)C(=O)C5(C)C)cc4CCc1ccc(C(=O)O)cc1)CC3(C)C | – | DMF | room temperature | – | singlet excited-state lifetime | 3.03 ns and 3 ns
CC12CC(c3ccc(S(C)(=O)=O)cc3)C3=C4CCC(=O)C=C4CCC3C1CCC2(O)C(F)(F)C(F)(F)F (stereo not drawn) | – | human | oral, 5 mg, mean of six subjects | baseline: dose | excreted amount in urine | 0.1%
CCC(C)N(C)C(=O)c1nc(-c2cccc(C(F)(F)[18F])c2)c2ccccc2n1 (stereo not drawn) | – | mouse, lung | intravenous, 3.7 MBq, 4 h | – | tracer uptake | 3.12 %ID/g
COc1ccnc(C[S+]([O-])c2nc3cc(-n4cccc4)ccc3[nH]2)c1C (stereo not drawn) | – | male Sprague Dawley rats, plasma | oral, 5 mg/kg ilaprazole racemate | baseline: compound over R-ilaprazole | AUC(0-t) ratio | 1.95
Cn1c(=O)oc2ccc(-c3ccc(CC(C#N)NC(=O)C4CNCCCO4)c(F)c3)cc21 (stereo not drawn) | measured: glucose urine present | human | 40 mg single dose, fasted | – | subjects with TEAE | 16.7%
Cc1c(Cl)c(C)[n+]([O-])c(Cl)c1-c1no[14c](-c2cc(O)c(O)c([N+](=O)[O-])c2)n1 | measured: total radioactivity | human, male, plasma | oral, 100 mg | – | Tlag | 0.5 h

Compound | assay | system | conditions | scale | endpoint | value
COc1cc(C(=O)COC(=O)CCCN)ccc1O | pump-probe transient absorption | 10% acetonitrile in water | – | – | singlet lifetime | 4.6 ps
COc1cc(NC(C)=O)c2c(c1O)-c1c(OC)c(OC)cc3c1C(C2)N(C)CC3 (stereo not drawn) | – | rat, processed plasma samples | 0.5 µg/mL, 24 h, room temperature, post-preparative storage | – | remaining compound | 121 ± 3.2%
CC(=O)[CH](C(C)=O)[Pt-2]1([S+](C)C)[O]C(C)=CC(C)=[O+]1 (stereo not drawn) | – | rat, blood | intravenous, 5 mg/kg, single dose | – | total protein | 5.38 ± 2.9 g/dL
CNc1cc(OC)c(Nc2nccc(-c3cn(C4CC4)c4ccccc34)n2)cc1NC(=O)CCSCC(NC(C)=O)C(=O)O (stereo not drawn) | – | human, urine and feces | 0 to 96 h urine, 0 to 240 h feces | baseline: dose | excreted amount | 6.83%
NC(=O)[C@H](Cc1ccccc1)N[11C](=O)OCc1ccccc1 | – | male Wistar rats, brain supernatant | intravenous, 45 min | – | intact tracer | 96.7% and 97%
N=C(N)NCCC[C@@H]1NC(=O)[C@H](Cc2c[nH]c3ccccc23)NC(=O)[C@@H](CC2CCCCC2)NC(=O)[C@@H]2CCCN2C(=O)[C@@H](NC(=O)CCc2ccccc2)CCCNC1=O | – | C57BL/6J mice, brain | subcutaneous, 1 mg/kg, two-compartment model | – | absorption rate constant | 2.35 h⁻¹
Cc1ccc(OCC(=O)N(Cc2cccs2)c2ccn[nH]2)cc1 | – | male Sprague-Dawley rat, plasma | oral, 30 mg/kg, single dose | – | Tmax | 0.31 h
C#CCOc1ccc(/C=C2\SC(=O)N(CC(=O)NCc3ccccc3)C2=O)cc1 | inverse Kirkwood-Buff integrals | binary solvent mixture | concentration not given, 298.15 K, mole fraction x1 0.35 | – | correlation volume | 3260 cm³/mol
Cc1ccc(-c2ccc(-c3cc4sccc4o3)cn2)nc1 | TCSPC | acetonitrile | zinc complex | – | radiative decay rate constant | 0.15 ns⁻¹
CCc1cc2c(N3CCN([11C](=O)c4ccc(-c5ccccc5)cc4)CC3)nc(N3CCNC(=O)C3)nc2s1 | PET | Wistar rats, male, brain | intravenous, with: tariquidar 15 mg/kg iv, 30 min before | – | SUVmax | 0.25
CCCCCCc1ccc(Oc2ccccc2C#N)c(O)c1 | – | CD-1 mice, plasma | subcutaneous, 100 mg/kg | – | absorption rate constant | 1.7 ± 1 h⁻¹
NC12CNCCNCC(NCc3ccc(CNC(=O)CCCC(=O)NCc4ccc(-c5nncnn5)cc4)cc3)(CNCCNC1)CNCCNC2.[64Cu+2] | OLINDA dosimetry | uterus | 48 h pretargeting interval, with: huA33-TCO pretargeting | – | mean absorbed dose | 0.0382 rad/mCi
CN(C(=O)Cn1c(=O)oc2ccc(-c3ccc(OCC[18F])cc3)cc21)c1ccccc1 | – | ischemic Sprague-Dawley rats, plasma | intravenous, 10 MBq radiolabelled, 30 min | – | intact parent fraction | 8.6 ± 1.9%
CC(=O)N[C@@H](CCCCN)C(=O)N[C@@H](CCCCN)C(=O)N[C@@H](CCCCN)C(=O)N[C@@H](CCCCN)C(=O)N[C@@H](CCCCN)C(=O)N[C@@H](CCCCN)C(=O)N[C@@H](CCCCN)C(=O)N[C@@H](CCCCN)C(=O)N[C@@H](CCCCN)C(=O)N[C@@H](CCCCN)C(=O)N[C@@H](CCC(N)=O)C(=O)N[C@@H](Cc1c[nH]c2ccccc12)C(=O)N[C@@H](CCC(N)=O)C(=O)N[C@@H](Cc1c[nH]c2ccccc12)C(=O)N[C@@H](CCC(N)=O)C(=O)N[C@@H](Cc1c[nH]c2ccccc12)C(=O)N[C@@H](CCC(N)=O)C(=O)N[C@@H](Cc1c[nH]c2ccccc12)C(=O)N[C@@H](CCC(N)=O)C(=O)N[C@@H](Cc1c[nH]c2ccccc12)C(=O)N[C@@H](CCC(N)=O)C(=O)N[C@@H](Cc1c[nH]c2ccccc12)C(N)=O | sedimentation velocity AUC | Tris buffer 20 mM | 20 µM, 24 h, pH 7.4, 4 °C | – | monomer fraction | 78%
C#CCN(CCCNC(=O)CCCCC[N+]1=C(/C=C/C2=C(Cl)C(=C/C=C3\N(CCCCCC(=O)[O-])c4ccccc4C3(C)C)/CCC2)C(C)(C)c2ccccc21)CCCOc1ccc(Cl)cc1Cl | – | mouse plasma | 1 µg/mL nominal, 3 freeze-thaw cycles at -80 °C | – | concentration | 950 ± 30 ng/mL
CCc1c2c(nc3ccc(O)cc13)-c1cc3c(c(=O)n1C2)COC(=O)[C@]3(O)CC | – | human patients, plasma | intravenous, 56 mg/m^2 of parent drug | – | Tmax | 1.36 h
COc1cc([O-])c(C=NCCCN(C)CCN(C)CCCN=Cc2c([O-])cc(OC)cc2OC)c(OC)c1.[67Ga+3] | – | rat | intravenous, 1 min | baseline: heart over liver | tissue uptake ratio | 0.33 ± 0.02
[11CH3]N1CCN(CCCOc2ccc(=O)n(-c3ccc(Cl)c(Cl)c3)n2)CC1 | PET-CT | BALB/c mouse male, lung | intravenous, dose not given, 5 min | – | uptake | 6.75 ± 0.86 %ID/cc
O=C([O-])c1cccc(CN(CCN(Cc2cn(Cc3ccccc3)nn2)Cc2cccc(C(=O)[O-])n2)Cc2cn(Cc3ccccc3)nn2)n1.[64Cu+2] | – | mouse, liver | intravenous, 15 min | – | tracer uptake | 17.7 %ID/g
NC[C@@H](C(=O)Nc1ccc(-c2cn[nH]c2)cc1)c1ccccc1 | OECD 405 eye irritation | New Zealand White rabbit, eye | topical, 0.1%, 32 h (day 2), scale 0 to 4 | direction not given | chemosis score | 0
C[Si](C)(C)C[C@@H](CN)CC(=O)O | – | Sprague-Dawley rat, male, brain | oral, 100 mg/kg, estimated as Cmax x Kp | – | brain Cmax | 2900 nM

A few entries again:
Compound | assay | system | conditions | scale | endpoint | value
CCC(C)N(C)C(=O)c1nc(-c2cccc(C(F)(F)[18F])c2)c2ccccc2n1 (stereo not drawn) | – | mouse, lung | intravenous, 3.7 MBq, 4 h | – | tracer uptake | 3.12 %ID/g
COc1ccnc(C[S+]([O-])c2nc3cc(-n4cccc4)ccc3[nH]2)c1C (stereo not drawn) | – | male Sprague Dawley rats, plasma | oral, 5 mg/kg ilaprazole racemate | baseline: compound over R-ilaprazole | AUC(0-t) ratio | 1.95
Cn1c(=O)oc2ccc(-c3ccc(CC(C#N)NC(=O)C4CNCCCO4)c(F)c3)cc21 (stereo not drawn) | measured: glucose urine present | human | 40 mg single dose, fasted | – | subjects with TEAE | 16.7%
Cc1c(Cl)c(C)[n+]([O-])c(Cl)c1-c1no[14c](-c2cc(O)c(O)c([N+](=O)[O-])c2)n1 | measured: total radioactivity | human, male, plasma | oral, 100 mg | – | Tlag | 0.5 h
COc1cc(C(=O)COC(=O)CCCN)ccc1O | pump-probe transient absorption | 10% acetonitrile in water | – | – | singlet lifetime | 4.6 ps
